Assay results of several laboratories.
Each numbered part is a random draw from the data of one study; scales do not carry over between parts.
Chain of UniProt P47898 (whole entry, looked up): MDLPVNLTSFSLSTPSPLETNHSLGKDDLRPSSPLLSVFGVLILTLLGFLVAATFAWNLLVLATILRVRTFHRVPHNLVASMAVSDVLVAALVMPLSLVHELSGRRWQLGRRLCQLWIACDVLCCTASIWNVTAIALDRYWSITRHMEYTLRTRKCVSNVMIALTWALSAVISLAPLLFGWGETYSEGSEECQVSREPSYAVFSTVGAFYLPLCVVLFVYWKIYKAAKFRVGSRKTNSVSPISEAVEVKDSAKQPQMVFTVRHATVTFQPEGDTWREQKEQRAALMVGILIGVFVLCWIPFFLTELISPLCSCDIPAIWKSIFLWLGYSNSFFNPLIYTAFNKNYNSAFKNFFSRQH

Study 1 — observed: enzyme activity; mode: inhibitor; tested at: 10 µM
Target: Calcium/calmodulin-dependent protein kinase type II subunit alpha (CAMK2A, Homo sapiens, UniProt Q9UQM7)
Chain of UniProt Q9UQM7 (whole entry, looked up): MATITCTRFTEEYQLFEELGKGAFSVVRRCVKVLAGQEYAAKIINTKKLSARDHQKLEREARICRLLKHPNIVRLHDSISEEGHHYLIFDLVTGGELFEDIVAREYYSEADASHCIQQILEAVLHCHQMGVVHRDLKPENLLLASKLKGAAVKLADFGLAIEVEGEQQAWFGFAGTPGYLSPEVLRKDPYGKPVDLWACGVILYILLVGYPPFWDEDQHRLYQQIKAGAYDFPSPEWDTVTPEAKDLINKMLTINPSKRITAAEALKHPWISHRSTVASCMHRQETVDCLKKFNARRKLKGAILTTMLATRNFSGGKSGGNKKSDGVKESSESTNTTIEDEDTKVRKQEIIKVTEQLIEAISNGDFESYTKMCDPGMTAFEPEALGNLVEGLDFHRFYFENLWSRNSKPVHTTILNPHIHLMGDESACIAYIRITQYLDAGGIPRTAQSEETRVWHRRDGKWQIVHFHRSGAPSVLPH
Compound | inhibition
COc1cc(O[C@@H]2O[C@H](CO[C@@H]3O[C@H](CO)[C@@H](O)[C@H](O)[C@H]3O)[C@@H](O)[C@H](O)[C@H]2O)c2c(O)c3c(=O)cc(C)oc3cc2c1 | -43%
COc1ccc([C@@H]2Sc3ccccc3N(CCN(C)C)C(=O)[C@@H]2OC(C)=O)cc1 | -13%
N[C@@H](CCC(=O)N[C@@H](Cc1ccccc1)C(=O)O)C(=O)O | 5%
COc1ccc2c(C)cc(=O)oc2c1O | 1%
Oc1ccc2c(c1)OCO2 | 31%
COc1cc(O[C@@H]2O[C@H](CO)[C@@H](O)[C@H](O)[C@H]2O)c2c(c1)C(=O)c1cc(C)cc(O)c1C2=O | 0%

Study 2 — cell line: mouse MPNST tumor cells; technique: high-content immunofluorescence imaging; measured: nuclear SOX9; tested at: 10 µM; time: 12 h; notes: mean of 2 replicates; baseline: DMSO control; reading: higher = more nuclear SOX9
Compound | nuclear SOX9 intensity
O=C(O)c1c(Sc2ccccc2)c2cc(Cl)ccc2n1Cc1ccc(Cl)cc1 | 90.3 % of DMSO
NCCCCCC(=O)O | 96 % of DMSO
CCOc1ccc2nc(S(N)(=O)=O)sc2c1 | 70.4 % of DMSO
c1ccc(CN(CC2=NCCN2)c2ccccc2)cc1 | 116 % of DMSO
CC1(C)CN2C(CSC(=NC3CCCCC3)NC3CCCCC3)=CSC2=N1 | 147 % of DMSO
COc1ccc(CC(=O)NCc2ccccc2-c2ccccc2C(=O)NCc2ccc(F)cc2F)cc1 | 106 % of DMSO
O=C(O)Cc1ccccc1Nc1c(Cl)cccc1Cl | 100 % of DMSO

Study 3 — species: human; matrix: microsomes or S9; tested at: 2 µM; time: 0.5 h
Structure (SMILES) | remaining compound [%]
COc1ccc(C(C)Nc2cncc(-c3nncn3C)c2)cc1F (stereo not drawn) | > 99.9
COc1cc(=O)n(C)cc1C(=O)N1CCN(S(=O)(=O)C2CC2)CC1 | 90
Cn1ncc2cc(C(=O)Nc3ccn(Cc4ccncc4)n3)cc(O)c21 | > 100
O=C(NCCCCCCNC(=O)N1CCCCC1)N1CCCCC1 | > 99.9
CC(C)(C)c1cc(-c2c(O)c3ccc(Cl)cc3[nH]c2=O)cc(C(C)(C)C)c1O | 89.9
COc1nc(NCCc2c[nH]c3ccccc23)nc(Nc2ccc3[nH]ncc3c2)n1 | 22.9
CCCC1CN(CC(=O)N(C(C)C)C(C)C)CCN1CC(=O)N(C(C)C)C(C)C (stereo not drawn) | 15

Other studies, line by line
SMILES | target | assay | setting | quantity | result
O=c1nc(-c2ccccn2)sc2ccccc12 | 5-hydroxytryptamine receptor 5A (HTR5A, Homo sapiens, UniProt P47898) | ligand displacement | 10 µM | inhibition | -10.2%

Excerpt of the above (study 2):
Compound | nuclear SOX9 intensity
CC1(C)CN2C(CSC(=NC3CCCCC3)NC3CCCCC3)=CSC2=N1 | 147 % of DMSO
COc1ccc(CC(=O)NCc2ccccc2-c2ccccc2C(=O)NCc2ccc(F)cc2F)cc1 | 106 % of DMSO
